# Published values gathered from unrelated publications.
# Lines come from different studies, so protocols differ. ± marks the error that the study gave.
SMILES,tested on,test,test system,conditions,how to read,quantity,result
C[C@@H]1Cc2c(Cl)cc(C(=O)N[C@H](Cc3ccccc3)C(=O)O)c(O)c2C(=O)O1,,,chicken embryos,"in ovo injection, 0.75 µg/egg",reference: ochratoxin A,hatchability difference,~11%
CC[C@H](C)[C@H](NC(=O)[C@H](CC(C)C)NC(=O)[C@H](Cc1c[nH]c2ccccc12)NC(=O)[C@H](CCC(N)=O)NC(=O)[C@@H](NC(=O)[C@H](Cc1ccccc1)NC(=O)[C@H](C)NC(=O)[C@H](CCCCNC(=O)COCCOCCNC(=O)COCCOCCNC(=O)CC[C@H](NC(=O)CCCCCCCCCCCCCCCCCCC(=O)O)C(=O)O)NC(=O)[C@H](CCC(N)=O)NC(=O)[C@H](C)NC(=O)[C@@H](NC(=O)[C@H](CCCCN)NC(=O)[C@H](CC(=O)O)NC(=O)[C@H](CC(C)C)NC(=O)C(C)(C)NC(=O)[C@@H](NC(=O)[C@H](CO)NC(=O)[C@H](Cc1ccc(O)cc1)NC(=O)[C@H](CC(=O)O)NC(=O)[C@H](CO)NC(=O)[C@@H](NC(=O)[C@H](Cc1ccccc1)NC(=O)[C@@H](NC(=O)CNC(=O)[C@H](CCC(=O)O)NC(=O)C(C)(C)NC(=O)[C@@H](N)Cc1ccc(O)cc1)[C@@H](C)O)[C@@H](C)O)[C@@H](C)CC)[C@@H](C)CC)C(C)C)C(=O)N[C@@H](C)C(=O)NCC(=O)NCC(=O)N1CCC[C@H]1C(=O)N[C@@H](CO)C(=O)N[C@@H](CO)C(=O)NCC(=O)N[C@@H](C)C(=O)N1CCC[C@H]1C(=O)N1CCC[C@H]1C(=O)N1CCC[C@H]1C(=O)N[C@@H](CO)C(N)=O,,,humans with end-stage renal disease,"subcutaneous, 5 mg",reference: ESRD over normal renal function,Cmax ratio,1.02
COc1ccc([C@@H](O)c2cc(-c3ncnc4cc(N5CCOCC5)ccc34)c(F)cc2Cl)nn1,,,"patients, advanced solid tumours","oral, 250 mg once daily, 10 dosing days, treatment-emergent, added: avelumab, radiotherapy",,"injury, poisoning, procedural complications incidence",4%
Cn1cnc(Cn2c(=O)[nH]/c(=N\c3cc4cn(C)nc4cc3Cl)n(Cc3cc(F)c(F)cc3F)c2=O)n1,,,"healthy Japanese adults, plasma","oral, 125 mg, day 5, fasted, with midazolam",,AUC(0-tau),424 µg·h/mL
Nc1ncnc2c([C@@H]3N[C@H](CO)[C@@H](O)[C@H]3O)c[nH]c12,Sudan ebolavirus,viral replication,"HeLa, Boniface",200 µM,,inhibition,89.4%
CN(C)c1ccc(N(Cc2cc(Cl)cs2)C(=O)Cc2cncc3ccccc23)cc1,SARS-CoV-2,,"Caco-2, Omicron BQ.1.1",,reference: CC50 over EC50,selectivity index,128
CC(C)C(=O)OC[C@H]1O[C@@H](n2ccc(NO)nc2=O)[C@H](O)[C@@H]1O,,,rat plasma,"100 µM, 0.5 h, added: digitonin 100 µM",,remaining compound,0%
CC[C@H](C)[C@H](NC(=O)[C@H](CC(C)C)NC(=O)[C@H](Cc1c[nH]c2ccccc12)NC(=O)[C@H](CCC(N)=O)NC(=O)[C@@H](NC(=O)[C@H](Cc1ccccc1)NC(=O)[C@H](C)NC(=O)[C@H](CCCCNC(=O)COCCOCCNC(=O)COCCOCCNC(=O)CC[C@H](NC(=O)CCCCCCCCCCCCCCCCCCC(=O)O)C(=O)O)NC(=O)[C@H](CCC(N)=O)NC(=O)[C@H](C)NC(=O)[C@@H](NC(=O)[C@H](CCCCN)NC(=O)[C@H](CC(=O)O)NC(=O)[C@H](CC(C)C)NC(=O)C(C)(C)NC(=O)[C@@H](NC(=O)[C@H](CO)NC(=O)[C@H](Cc1ccc(O)cc1)NC(=O)[C@H](CC(=O)O)NC(=O)[C@H](CO)NC(=O)[C@@H](NC(=O)[C@H](Cc1ccccc1)NC(=O)[C@@H](NC(=O)CNC(=O)[C@H](CCC(=O)O)NC(=O)C(C)(C)NC(=O)[C@@H](N)Cc1ccc(O)cc1)[C@@H](C)O)[C@@H](C)O)[C@@H](C)CC)[C@@H](C)CC)C(C)C)C(=O)N[C@@H](C)C(=O)NCC(=O)NCC(=O)N1CCC[C@H]1C(=O)N[C@@H](CO)C(=O)N[C@@H](CO)C(=O)NCC(=O)N[C@@H](C)C(=O)N1CCC[C@H]1C(=O)N1CCC[C@H]1C(=O)N1CCC[C@H]1C(=O)N[C@@H](CO)C(N)=O,,,"healthy subjects, single ascending dose","1.0 mg, day 29",,serum AST,18.4 ± 0.5 U/L
CC(C)c1nc(N(C)S(C)(=O)=O)nc(-c2ccc(F)cc2)c1/C=C/[C@@H](O)C[C@@H](O)CC(=O)O,,,healthy human subjects,"oral, dose not given, study CL-0537 safety set",,incidence of injury or poisoning,3.6%
Cn1cnc(Cn2c(=O)[nH]/c(=N\c3cc4cn(C)nc4cc3Cl)n(Cc3cc(F)c(F)cc3F)c2=O)n1,,,"human, moderate renal impairment, plasma","oral, 375 mg single dose, 24 h",,unbound fraction,0.0141
CCOP(=S)(OCC)Oc1nc(Cl)c(Cl)cc1Cl,rat CYP3A,"midazolam 4-hydroxylation, non-competitive inhibitor","rat Sprague-Dawley, liver microsomes","10 min, pH 7.4, added: midazolam 15 to 214 µM",,Ki,77.7 ± 17.2 µM
CNC(=O)[C@@H](NC(=O)[C@H](CC(C)C)[C@H](O)C(=O)NO)C(C)(C)C,Daboia russelii venom proteases (SVMP),"protease activity, inhibitor",MH population,"1 µM, added: azocasein substrate",reference: venom alone,remaining activity,0%

# Some of these lines once more:
SMILES,tested on,test,test system,conditions,how to read,quantity,result
CC[C@H](C)[C@H](NC(=O)[C@H](CC(C)C)NC(=O)[C@H](Cc1c[nH]c2ccccc12)NC(=O)[C@H](CCC(N)=O)NC(=O)[C@@H](NC(=O)[C@H](Cc1ccccc1)NC(=O)[C@H](C)NC(=O)[C@H](CCCCNC(=O)COCCOCCNC(=O)COCCOCCNC(=O)CC[C@H](NC(=O)CCCCCCCCCCCCCCCCCCC(=O)O)C(=O)O)NC(=O)[C@H](CCC(N)=O)NC(=O)[C@H](C)NC(=O)[C@@H](NC(=O)[C@H](CCCCN)NC(=O)[C@H](CC(=O)O)NC(=O)[C@H](CC(C)C)NC(=O)C(C)(C)NC(=O)[C@@H](NC(=O)[C@H](CO)NC(=O)[C@H](Cc1ccc(O)cc1)NC(=O)[C@H](CC(=O)O)NC(=O)[C@H](CO)NC(=O)[C@@H](NC(=O)[C@H](Cc1ccccc1)NC(=O)[C@@H](NC(=O)CNC(=O)[C@H](CCC(=O)O)NC(=O)C(C)(C)NC(=O)[C@@H](N)Cc1ccc(O)cc1)[C@@H](C)O)[C@@H](C)O)[C@@H](C)CC)[C@@H](C)CC)C(C)C)C(=O)N[C@@H](C)C(=O)NCC(=O)NCC(=O)N1CCC[C@H]1C(=O)N[C@@H](CO)C(=O)N[C@@H](CO)C(=O)NCC(=O)N[C@@H](C)C(=O)N1CCC[C@H]1C(=O)N1CCC[C@H]1C(=O)N1CCC[C@H]1C(=O)N[C@@H](CO)C(N)=O,,,"healthy subjects, single ascending dose","1.0 mg, day 29",,serum AST,18.4 ± 0.5 U/L
CC(C)c1nc(N(C)S(C)(=O)=O)nc(-c2ccc(F)cc2)c1/C=C/[C@@H](O)C[C@@H](O)CC(=O)O,,,healthy human subjects,"oral, dose not given, study CL-0537 safety set",,incidence of injury or poisoning,3.6%
